Measured values of several laboratories.
Each line is one published result; not all experiments were run side by side. Values joined by “and” are separate records of one study, mostly repeats; a detail may differ. ± marks the error that the study gave.

Structure (SMILES) = NCC(=O)Nc1cncc(-c2nn3c(=O)cc(N4CCNCC4)nc3s2)c1; assay = ADP-induced platelet aggregation, light transmission aggregometry; system = human, stable CAD on aspirin, ex vivo platelets; setting = subcutaneous, 0.04 mg/kg, 360 min post-dose, mean value, with: ADP 20 µM; quantity = inhibition; value = 0%
Structure (SMILES) = Cc1[nH]c(/C=C2\C(=O)Nc3ccc(F)cc32)c(C)c1C(=O)NCCN1CCCC1; assay = RECIST; system = dogs with lung metastatic osteosarcoma; setting = dose not given, single agent; quantity = clinical benefit rate; value = 17.6%
Structure (SMILES) = c1ccc(-c2n[nH]cc2-c2ccnc3ccccc23)nc1; assay = kinase binding, competitor, MIB/MS competition, item: ENV7; system = Candida albicans cell lysate; setting = 100 nM; scale = reference: DMSO; quantity = log2 fold change; value = 1.01
Structure (SMILES) = CN(C)C(=O)Oc1cccc([N+](C)(C)C)c1; assay = neuromuscular block reversal; system = rat; setting = dose not given, 18.5 (unit not given), with: cisatracurium; scale = reference: T1 twitch; quantity = train-of-four ratio; value = 98
Structure (SMILES) = C[C@H](Oc1ccc(Br)cc1-c1ccon1)C(=O)O; assay = muscle velocity recovery cycles; system = human, tibialis anterior muscle; setting = 1200 mg single dose, 3.5 h post-dose, frequency ramp, last response at 30 Hz; scale = reference: placebo; quantity = peak amplitude change; value = -11%
Structure (SMILES) = CC(C)[C@H](NC(=O)[C@H](Cc1ccc(O)cc1)NC(=O)[C@H](Cc1ccc(O)cc1)NC(=O)[C@@H]1CCCN1C(=O)[C@H](CCC(=O)O)NC(=O)[C@H](CCC(=O)O)NC(=O)[C@H](Cc1c[nH]c2ccccc12)NC(=O)[C@@H]1CCCN1C(=O)[C@@H](NC(=O)[C@H](CCC(N)=O)NC(=O)c1ccc2c(c1)C(=O)OC21c2ccc(O)cc2Oc2cc(O)ccc21)C(C)C)C(=O)N[C@H](C(=O)N[C@@H](CCCCN)C(=O)N[C@@H](CCCCN)C(=O)N[C@@H](CO)C(=O)N[C@@H](CO)C(=O)NCC(=O)NCC(N)=O)C(C)C; assay = surgeon confidence in nerve; system = human head and neck surgery, nerves; setting = 500 mg, much improved; scale = reference: white light; quantity = share of responses; value = 14.2%
Structure (SMILES) = N#Cc1ccc2c(-c3ccncc3)c(-c3ccc(F)cc3)nn2c1; assay = kinase binding, competitor, MIB/MS competition, item: RIO2; system = Candida albicans cell lysate; setting = 100 nM; scale = reference: DMSO; quantity = log2 fold change; value = -0.796
Structure (SMILES) = CCCCCCCCCCCCCCCC(=O)N[C@@H](CCC(=O)NCCCC[C@H](NC(=O)CCOCCOCCOCCOCCNC(=O)CNC(=O)CCN1C(=O)CC(SC[C@H](NC(=O)CNC(=O)[C@H](CO)NC(=O)CNC(=O)CNC(=O)CNC(=O)CNC(=O)[C@H](CO)NC(=O)CNC(=O)CNC(=O)CNC(=O)CNC(=O)[C@H](CO)NC(=O)CNC(=O)CNC(=O)CNC(=O)CNC(=O)[C@H](CCCNC(=N)N)NC(=O)CNC(=O)[C@H](CCCNC(=N)N)NC(=O)[C@@H](NC(=O)[C@H](CC(C)C)NC(=O)[C@H](Cc2c[nH]c3ccccc23)NC(=O)[C@H](C)NC(=O)[C@@H](NC(=O)[C@H](Cc2ccccc2)NC(=O)[C@H](CCC(=O)O)NC(=O)[C@H](CCCCN)NC(=O)[C@H](C)NC(=O)[C@H](C)NC(=O)[C@H](CCC(N)=O)NC(=O)CNC(=O)[C@H](CCC(=O)O)NC(=O)[C@H](CC(C)C)NC(=O)[C@H](Cc2ccc(O)cc2)NC(=O)[C@H](CO)NC(=O)[C@H](CO)NC(=O)[C@@H](NC(=O)[C@H](CC(=O)O)NC(=O)[C@H](CO)NC(=O)[C@@H](NC(=O)[C@H](Cc2ccccc2)NC(=O)[C@@H](NC(=O)CNC(=O)[C@H](CCC(=O)O)NC(=O)C(C)(C)NC(=O)[C@@H](N)Cc2cnc[nH]2)[C@@H](C)O)[C@@H](C)O)C(C)C)[C@@H](C)CC)C(C)C)C(=O)O)C1=O)C(=O)NCCOCCOCCOCCOCCC(=O)N[C@@H](CCCCNC(=O)CC[C@H](NC(=O)CCCCCCCCCCCCCCCCC(=O)O)C(=O)O)C(=O)OC)C(=O)O (some centres unmarked); system = db/db mouse; setting = subcutaneous, 100 nmol/kg single, 0 to 96 h; scale = reference: baseline; quantity = blood glucose AUC(0-96); value = 5210 ± 847%
Structure (SMILES) = CCCCC1(CCCC)CN(c2ccccc2)c2cc(SC)c(OCC(=O)N[C@@H](C(=O)NCC(=O)O)c3ccccc3)cc2S(=O)(=O)C1; assay = qPCR; system = male mice, ileum; setting = 1 mg/kg, after mixed meal tolerance test; scale = reference: PBS; quantity = Fxr mRNA level; value = no effect
Structure (SMILES) = CN1CC(Oc2cnc(C#N)cc2-c2ccn3nc(NC(=O)C4CC4)cc3c2)C1; assay = TNF release; system = C57BL/6 mouse, LPS challenge, plasma; setting = oral, 1 and 80 mg/kg, dosed 1 h before LPS; quantity = IC50; value = 390 nM
Structure (SMILES) = Cc1oncc1C(=O)Nc1ccc(C(F)(F)F)cc1; assay = item: dihydroorotate; system = CD-1 mouse, female, whole blood; setting = oral, 30 mg/kg, 8 h after first dose; scale = reference: vehicle; quantity = blood concentration increase; value = 8 fold
Structure (SMILES) = O=c1c(NCCc2cccc(Cl)c2)c(Nc2ccc(Cl)cc2)c1=O; assay = active lever responses; system = cocaine self-administering rat; setting = ip, 5.6 mg/kg, 10 min pretreatment; quantity = cue-induced cocaine-seeking reinstatement; value = decreased
Structure (SMILES) = O=C(O)CNC(=O)Cc1ccccc1; system = ventricular cardiomyocytes, C57BL/6 mouse; setting = dose not given, 0.392 s; quantity = sarcomere length; value = 1.72 µm
Structure (SMILES) = OC(CCN1CCCCC1)(c1ccccc1)C1CC2C=CC1C2 (centres unmarked); assay = resting-state EEG; system = healthy elderly humans; setting = oral, 2 mg, eyes open, LS mean; quantity = EEG Alpha1-power Pz-O2; value = 6.6 µV²
Structure (SMILES) = COc1nc(-c2cc(C)c(N[C@@H](C)c3cc(F)cc(F)c3)nn2)ccc1-n1cnc(C)c1; assay = item: Aβ40; system = rat Sprague-Dawley male, plasma; setting = oral, 25 mg/kg daily for 9 days, 4 h after dose; scale = reference: vehicle; quantity = change in level; value = 88%
Structure (SMILES) = CC(c1cc2ccccc2s1)N(O)C(N)=O (centres unmarked); assay = item: RvD5; system = human whole blood; setting = 3 µM, with: Escherichia coli; quantity = amount; value = 2 pg/mL blood
Structure (SMILES) = CN1CCN(C(=O)c2ccc(C3CCCCC3)cc2)CC1; assay = hepatocyte stability; system = cryopreserved rat hepatocytes; setting = 1 µM; quantity = hepatic clearance; value = 45 mL/min/kg
Structure (SMILES) = C[C@@H](NC(=O)N1C(=O)[C@H](Cc2ccnc(N)c2)[C@H]1C(=O)O)C1CCCCC1; system = human; setting = iv infusion, 0.6 mg/kg/h, 24 h, unit not given; scale = reference: baseline; quantity = PT Emax; value = 1.05
Structure (SMILES) = N#Cc1ccc(Oc2ccc3c(c2)COB3O)cc1; system = Balb/c mice, oxazolone atopic dermatitis; setting = day 20, unit not given; scale = reference: vehicle; quantity = ear thickness difference; value = -0.25
Structure (SMILES) = Cn1cc(Nc2nccc(-c3ccc4c(c3)CN(C3COC3)CC[C@H]4NC(=O)c3cn(C(C)(C)C)nn3)n2)cn1; assay = item: Tec kinase signaling; system = splenic B cells, mice; setting = 30 mg/kg, IgD-activated in vivo; scale = reference: vehicle, direction not given; quantity = pathway activation z-score; value = 3.4
Structure (SMILES) = N=C(N)NCCC[C@H](NC(=O)[C@H](CCCNC(=N)N)NC(=O)[C@H](CCCCN)NC(=O)[C@H](CCC(N)=O)NC(=O)[C@H](CCCCN)NC(=O)[C@H](Cc1ccc(O)cc1)NC(=O)[C@@H](N)CCCCN)C(=O)N[C@@H](CO)C(=O)N[C@@H](Cc1ccc(O)cc1)C(=O)N[C@@H](CCCCN)C(=O)O; assay = air evaporative stimulus; system = dentin hypersensitivity patients; setting = 2.5 µg/tooth single, day 22; scale = reference: baseline, direction not given; quantity = median Schiff sensitivity score change; value = -0.5
Structure (SMILES) = N#Cc1ccn2c(-c3ccncc3)c(-c3ccc(F)cc3)nc2c1; assay = kinase binding, competitor, MIB/MS competition, item: CAK1; system = Candida albicans cell lysate; setting = 1 µM; scale = reference: DMSO; quantity = log2 fold change; value = 0.178
Structure (SMILES) = C[C@@H]1C[C@H]2[C@@H]3CCC4=CC(=O)C=C[C@]4(C)[C@@]3(F)[C@@H](O)C[C@]2(C)[C@@]1(O)C(=O)CO; system = BALB/c mice, oxazolone atopic dermatitis; setting = topical, 20 mg/ear, 264 h, day 11, unit not given; scale = reference: vehicle; quantity = ear thickness difference; value = -0.22
Structure (SMILES) = CO[C@@H](C(=O)N1Cc2n[nH]c(NC(=O)c3ccc(N4CCN(C)CC4)cc3)c2C1)c1ccccc1; system = human; setting = concentration not given; quantity = CA125 decline; value = ≥ 30% and 30%
Structure (SMILES) = N#CC[C@H](C1CCCC1)n1cc(-c2ncnc3[nH]ccc23)cn1; system = Balb/c mice, oxazolone atopic dermatitis; setting = day 17, unit not given; scale = reference: vehicle; quantity = ear thickness difference; value = -0.14
Structure (SMILES) = COc1cc(F)c([C@@H]2CNC(=O)[C@H]2NC(=O)Nc2ccccc2)c(F)c1; assay = LV haemodynamics; system = rat, myocardial ischaemia-reperfusion; setting = 1 mg/kg, 1008 h, 6 weeks post-injury; quantity = LV dP/dtmin; value = -6390 ± 1130 mmHg/s
Structure (SMILES) = O=C(OC(C(F)(F)F)C(F)(F)F)N1CCN(Cc2cccc(Oc3ccccc3)c2)CC1; assay = PET; system = rhesus monkey, striatum; setting = intravenous, 0.03 mg/kg, pretreatment blocking, with: [18F]T-401; quantity = tracer distribution volume; value = 6.76 mL/cm3
Structure (SMILES) = COc1cc(Nc2ncc3c(n2)-c2ccc(Cl)cc2C(c2c(F)cccc2OC)=NC3)ccc1C(=O)O; system = mouse, NB-1643 neuroblastoma xenograft; setting = 20.8 mg/kg; scale = direction not given; quantity = median response score; value = 10
Structure (SMILES) = N#Cc1ccc2c(c1)[C@H]1CCCN(C(=O)c3ccc4[nH]cnc4c3)[C@H]1C2; assay = item: androstenedione; system = human female, Phase II trial; setting = oral, 20 mg once daily, HPA axis, mean; quantity = change from baseline; value = 0.45 nmol/L
Structure (SMILES) = C[C@H]1C[C@H]2CSC(N)=N[C@@]2(c2nc(NC(=O)c3ccc(OC(F)F)cn3)cs2)CO1; assay = item: Aβx-40; system = healthy adults, plasma; setting = 275 mg once daily, day 7; scale = reference: placebo; quantity = percent change from baseline; value = -72.2%
Structure (SMILES) = O=C(Cc1cccnc1)Nc1ccc([C@H]2[C@@H](F)[C@@H](F)C[C@@H](F)[C@H]2F)cc1; system = human liver microsomes; setting = 1 µM, without NADPH; quantity = hepatic clearance; value = 3.9 mL/min/kg
Structure (SMILES) = CC(C)C[C@H](NC(=O)[C@@H](Cc1c[nH]c2ccccc12)NC(=O)[C@H](Cc1ccc(O)cc1)NC(=O)[C@H](CO)NC(=O)[C@H](Cc1c[nH]c2ccccc12)NC(=O)[C@H](Cc1c[nH]cn1)NC(=O)[C@@H]1CCC(=O)N1)C(=O)N[C@@H](CCCNC(=N)N)C(=O)N1CCC[C@H]1C(=O)NCC(N)=O; system = Chinese girls, central precocious puberty; setting = intramuscular, 22.5 mg day 1, month 6, month 6, Tanner stage IV; quantity = girls at breast stage; value = 6.5%
Structure (SMILES) = CCCCC1(CCCC)CN(c2ccccc2)c2cc(SC)c(OCC(=O)N[C@@H](C(=O)NCC(=O)O)c3ccccc3)cc2S(=O)(=O)C1; assay = item: 7α-hydroxy-4-cholesten-3-one; system = human, plasma; setting = 20 mg once daily, day 8; quantity = plasma C4; value = 70 ng/mL
Structure (SMILES) = CC1(C)CCC(c2ccc(Cl)cc2)=C(CN2CCN(c3ccc(C(=O)NS(=O)(=O)c4ccc(N[C@H](CCN5CCOCC5)CSc5ccccc5)c(S(=O)(=O)C(F)(F)F)c4)cc3)CC2)C1; assay = cell killing, flow cytometry PI exclusion; system = canine blood CD21+ B cells, dog 34; setting = 24 h; quantity = EC50; value = 980 nM
Structure (SMILES) = CO[C@H]1CC[C@H](N2C(=O)CNc3ncc(-c4ccc(C(C)(C)O)nc4)nc32)CC1; assay = flow cytometry; system = stimulated monocytes, human, blood; setting = 45 mg single dose, 24 h, median; scale = reference: baseline; quantity = pAKT change from baseline; value = -20.4%
Structure (SMILES) = C[C@@H](O)CCOC(=O)C[C@@H](C)O; assay = item: Ser; system = human, plasma; setting = 60 min, log2-transformed values; quantity = metabolite level; value = 6.55 ± 0.27 µmol/L
Structure (SMILES) = COc1ccc2c(c1)CN(C(=O)CCN1CCC(Cc3ccccc3)CC1)CC[S@@+]2[O-]; system = anaesthetised Beagle dogs; setting = intravenous, 0.1 mg/kg, pacing cycle length 250 ms; quantity = atrial ERP prolongation; value = 38%
Structure (SMILES) = Cc1cn(-c2ccc3n(c2=O)CCN([C@@H](C)[C@@H]2CC[C@H](c4cc(F)c(Cl)cc4C(F)(F)F)O2)C3=O)cn1; assay = item: Aβ37; system = human, cerebrospinal fluid; setting = 300 mg single dose, Tmax; scale = reference: placebo-adjusted baseline; quantity = change in CSF level; value = 294%

Repeated from above:
Structure (SMILES) = N#Cc1ccc2c(c1)[C@H]1CCCN(C(=O)c3ccc4[nH]cnc4c3)[C@H]1C2; assay = item: androstenedione; system = human female, Phase II trial; setting = oral, 20 mg once daily, HPA axis, mean; quantity = change from baseline; value = 0.45 nmol/L
Structure (SMILES) = Cc1cn(-c2ccc3n(c2=O)CCN([C@@H](C)[C@@H]2CC[C@H](c4cc(F)c(Cl)cc4C(F)(F)F)O2)C3=O)cn1; assay = item: Aβ37; system = human, cerebrospinal fluid; setting = 300 mg single dose, Tmax; scale = reference: placebo-adjusted baseline; quantity = change in CSF level; value = 294%
Structure (SMILES) = O=C(OC(C(F)(F)F)C(F)(F)F)N1CCN(Cc2cccc(Oc3ccccc3)c2)CC1; assay = PET; system = rhesus monkey, striatum; setting = intravenous, 0.03 mg/kg, pretreatment blocking, with: [18F]T-401; quantity = tracer distribution volume; value = 6.76 mL/cm3
